Assay results collected from several papers.
Parts stem from different laboratories: compare values within a part only.

Sample 1
Target: RNA binding protein fox-1 homolog 2, RRM domain, GST-SBP tag (RBFOX2, Homo sapiens, UniProt O43251-10, residues 100-194)
Method: RNA Bind-n-Seq
Molecule type: RNA
Sample: in vitro
Concentration: 365 nM
Notes: natural RNA segment, single round, ends assumed
Baseline: no-protein control
Direction: higher = stronger binding
Construct (chain): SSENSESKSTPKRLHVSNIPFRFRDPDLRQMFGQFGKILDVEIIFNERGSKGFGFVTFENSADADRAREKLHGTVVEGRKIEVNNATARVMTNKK
`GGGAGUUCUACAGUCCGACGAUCUAACAAACACAACUAAGGCCUCUGGUACCCUCUGCCCUGCUGGCCUGGUGAUGUCCCAGUGUCUCAGAACUGAUCACUUGCUCCUCCUAUUGUGUGAACCACUCUUAGCAUGGAAUUCUCGGGUGCCAA` — result for “RBNS enrichment (R)”: 2.48.
For `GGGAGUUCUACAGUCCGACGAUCAAGCCACCUCUCUCUUUCUUGCUAUCUUUUUUUUCUCUCUCUCUCUAUCUCAAGUUUGUGCAGGGAGAUGGUGAACUGUUUUGUCAGAACUUAAAUAGAAGAAAAAGAAAUGGAAUUCUCGGGUGCCAA`, “RBNS enrichment (R)” read 0.699.
Under “RBNS enrichment (R)”, `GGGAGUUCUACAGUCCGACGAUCUCCUUCCCACAGUACCUUAAGAUUGCCCAGCCUCCCUGCUCUAGUGGCUGGGGCUCCCUUACCAGAGGGGCAAGUCUGGCCCCUCAGUCCUUAACUGGAAAGUGACCCUCUGGAAUUCUCGGGUGCCAA` is recorded as 0.747.
`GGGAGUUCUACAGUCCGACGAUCCAAGCUACCACGUGCACAGACAGCCCAAUGAGUGGGCCAUUUCUCCACAACCCUGGUGUAAUACAGAGUCCAGCCAUUACCAUUCUCCUGCGUUACUUUGACAUGGGAUUUGGAAUUCUCGGGUGCCAA`: “RBNS enrichment (R)” 0.3.
Under “RBNS enrichment (R)”, `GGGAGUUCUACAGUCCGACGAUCUUAAAGGUUCUGUGUCAGCUAUUUUCAUUGCCAAUGAAAUGUAUUCAGUAUUGUAGAUACUAAACCAGUUUUCCCACAUGAAAGGCAGGAAGAGUUUUGAUUCUGUCCUUUGGAAUUCUCGGGUGCCAA` is recorded as 0.672.
`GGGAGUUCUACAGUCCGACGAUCCUUUCCCUGUGUGGUCUGCCCUCCACCUCUGAGGCCAGCUCAUCAGAUCUGACCUGCCUGAGACAACCCAGGUAAUUUGGGGUUUGAUCAGAGGUCUAAUGGUAGCAAACUGGAAUUCUCGGGUGCCAA`: “RBNS enrichment (R)” 0.251.
Under “RBNS enrichment (R)”, `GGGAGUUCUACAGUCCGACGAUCAAACCAUUUCUGUCCAAGAGAAAAUGACUUUUUGCUUUGAUAUUAAAAAUUCAAUGAGUAAAACAAAAGCUAGUCAAAUGUGUUAGCAGCAUGCAGAACAAAAACUUUAAUGGAAUUCUCGGGUGCCAA` is recorded as 7.16.
For `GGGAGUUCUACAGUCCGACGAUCGGCACAGGCUGGGUCCAGUUCUGCCUGAGCACGGUUUUUCCUCAUGUGACUUCUGGGAAGGCGCUCCCUCAUCUGGGCCAAAGGAAGGAGGACGAAGCCCUCCUCAGCUGUGGAAUUCUCGGGUGCCAA`, “RBNS enrichment (R)” read 0.317.

Sample 2
Target: Ras GTPase-activating protein-binding protein 1, full length (G3BP1, Homo sapiens, UniProt Q13283)
UniProt Q13283, sequence (whole entry, looked up): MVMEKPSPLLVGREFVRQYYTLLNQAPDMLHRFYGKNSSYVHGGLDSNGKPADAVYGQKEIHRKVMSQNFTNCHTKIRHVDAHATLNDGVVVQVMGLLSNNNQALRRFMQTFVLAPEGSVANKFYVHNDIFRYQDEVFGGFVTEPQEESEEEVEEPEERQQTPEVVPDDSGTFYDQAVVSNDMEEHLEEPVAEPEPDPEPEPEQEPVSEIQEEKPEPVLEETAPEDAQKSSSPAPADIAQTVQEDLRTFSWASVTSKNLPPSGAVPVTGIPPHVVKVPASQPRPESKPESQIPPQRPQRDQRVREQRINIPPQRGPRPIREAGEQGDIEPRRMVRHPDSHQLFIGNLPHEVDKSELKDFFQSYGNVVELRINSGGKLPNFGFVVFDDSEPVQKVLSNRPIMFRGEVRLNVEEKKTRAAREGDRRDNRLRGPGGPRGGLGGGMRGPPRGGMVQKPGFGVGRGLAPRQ
Method: RNA Bind-n-Seq
Molecule type: RNA
Sample: in vitro
Concentration: 200 nM
Notes: whole 134-nt RNA, ends assumed
With: 150 mM LiCl
Baseline: input library
Direction: higher = stronger binding
Each molecule: 7-deaza-guanosine replaces G
`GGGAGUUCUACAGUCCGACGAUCAAGUCCUGUGCUACACAUCGUAUGUACCGAAUCGGUUUUUUUGGUGGUUUUUUUGGAAAGUAUUAUGUUACGCCGUUCGGAUCUGCACUUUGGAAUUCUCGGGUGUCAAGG` gave a log2 enrichment of -0.682.
`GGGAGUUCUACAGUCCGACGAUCACCGUGCAGGUGGGCAUCUUUGGGAAGUGGGGCAAGGGGGGGAUAGGGAGGGGGGUAACACUUUGGGAACAGGUGGUCCCAGGUCGUUUCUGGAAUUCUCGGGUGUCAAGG` gave a log2 enrichment of 0.317.
For `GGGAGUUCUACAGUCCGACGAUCCCUGUGCUACACAUCGUAUGUACCGAAUCAAACCCCCAAAUUUUUUUAAACCCCCCCAAAAAAGUAUUAUGUUACGCCGUUCGGAUCUGCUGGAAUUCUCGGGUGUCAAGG`, the log2 enrichment was 1.25.
`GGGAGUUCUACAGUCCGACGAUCAGUCCUGUGCUACACAUCGUAUGUACCGAAUCGGGUGGGAAAAAAAGGGAAAAAGGGAAAGUAUUAUGUUACGCCGUUCGGAUCUGCACUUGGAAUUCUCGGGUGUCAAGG` has a log2 enrichment of -0.338.
For `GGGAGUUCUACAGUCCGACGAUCACAAGUGGAGGAGAAGAACUUAGAAGAACUAGAGGAGAAAUCUACUACUCCUCCUCCGGCAGAACCUGUUUCUCUGCCACAAGAACCACCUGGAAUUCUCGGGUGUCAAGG`, the log2 enrichment was 1.17.
`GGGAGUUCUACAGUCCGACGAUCCCUCAAGUCCUGUGCUACACAUCGUAUGUACCGAAUCGGGAGGGGAGGGAGGAAAGUAUUAUGUUACGCCGUUCGGAUCUGCACUUCCAGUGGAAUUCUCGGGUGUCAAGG` has a log2 enrichment of 0.355.
With `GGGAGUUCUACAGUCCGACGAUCUUUCACAGAGAAGCAAAUGCUGGCACAAGGAUACCCUGCUUACACGACAUCGUGCGCCUGGCUGGGGUACUCAGAUGACACGUUGAAGCAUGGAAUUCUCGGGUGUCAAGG` the log2 enrichment was -0.0429.
With `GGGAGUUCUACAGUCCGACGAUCCACAGACAACACGCACCCACACAGACACAGAGGGAAGGGGUUGGGAUGGGGACAGGGUGCACAGCAGGGCGGGGUAGGACCCCAGCGCCUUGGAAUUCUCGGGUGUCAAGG` the log2 enrichment was -1.57.

Sample 3
Target: Prothrombin, mature alpha-thrombin (F2, Homo sapiens, UniProt P00734)
Method: aptamer microarray, sandwich
Molecule type: DNA with 2'F-ANA
Sample: in vitro
Concentration: 200 nM
Notes: whole 15-mer aptamer, many near background
With: Cy3 exosite-II aptamer, 400 nM
Direction: higher = stronger binding
Oligonucleotide: GGTTGGTGTGGTTGG
`2'F-ANA at 1 3 8 11 12 15`: “mean fluorescence intensity” 518 a.u.
Under “mean fluorescence intensity”, `2'F-ANA at 3 5 8 10 11 15` is recorded as 92.5 a.u.
Under “mean fluorescence intensity”, `2'F-ANA at 1 5 8 9 11 15` is recorded as 56.4 a.u.
`2'F-ANA at 1 2 5 7 8 10 12 14` — result for “mean fluorescence intensity”: 43.7 a.u.
`2'F-ANA at 1 2 3 5 6 9 11 12 13 15`: “mean fluorescence intensity” 81 a.u.
`2'F-ANA at 1 3 5 6 7 10 12 13 14 15`: “mean fluorescence intensity” 50 a.u.
For `2'F-ANA at 3 4 5 9 11 12 14`, “mean fluorescence intensity” read 49.9 a.u.
Under “mean fluorescence intensity”, `2'F-ANA at 3 4 5 7 10 11 12 15` is recorded as 63.2 a.u.
`2'F-ANA at 2 3 5 9 10 11 14`: “mean fluorescence intensity” 64.2 a.u.
Under “mean fluorescence intensity”, `2'F-ANA at 2 4 5 6 7 8 11 12 15` is recorded as 108 a.u.
`2'F-ANA at 1 5 6 10 11 12 14` — result for “mean fluorescence intensity”: 121 a.u.
For `2'F-ANA at 1 3 4 5 7 10 11 13`, “mean fluorescence intensity” read 49.3 a.u.
For `2'F-ANA at 3 9 10 11 14 15`, “mean fluorescence intensity” read 368 a.u.
Under “mean fluorescence intensity”, `2'F-ANA at 1 4 5 6 7 8 9 10 11 12` is recorded as 59.2 a.u.
`2'F-ANA at 3 6 10 14`: “mean fluorescence intensity” 399 a.u.
Under “mean fluorescence intensity”, `2'F-ANA at 1 4 5 7 9 14 15` is recorded as 45.6 a.u.
For `2'F-ANA at 2 4 5 7 11 12 15`, “mean fluorescence intensity” read 118 a.u.
Under “mean fluorescence intensity”, `2'F-ANA at 1 3 6 7 8 10 12 13` is recorded as 149 a.u.
`2'F-ANA at 2 3 4 5 10 13 14 15`: “mean fluorescence intensity” 45 a.u.
`2'F-ANA at 1 2 3 6 7 13 14 15`: “mean fluorescence intensity” 66 a.u.
For `2'F-ANA at 1 2 4 11 12 13 14 15`, “mean fluorescence intensity” read 52.8 a.u.
Under “mean fluorescence intensity”, `2'F-ANA at 2 3 4 5 6 9 12` is recorded as 184 a.u.
`2'F-ANA at 1 3 5 8 10 11`: “mean fluorescence intensity” 44.6 a.u.

Sample 4
Target: Histone acetyltransferase KAT6A, winged helix 2, GST fusion (KAT6A, Homo sapiens, UniProt Q92794, residues 85-181)
Method: protein binding microarray
Molecule type: double-stranded DNA, one strand shown
Sample: in vitro
Concentration: not given
Notes: 8-mer, flanks averaged, mean of 2 arrays, mostly near background
Baseline: not given
Direction: higher = stronger binding
Residues (chain): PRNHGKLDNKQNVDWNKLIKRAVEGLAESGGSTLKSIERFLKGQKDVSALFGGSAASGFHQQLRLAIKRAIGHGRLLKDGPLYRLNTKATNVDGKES
For `AAAATTGC`, the E-score was -0.0124.
`GGGGGCCA` has an E-score of 0.107.
The E-score of `CCAGTCGG` is reported as 0.0941.
For `AAATGACA`, the E-score was -0.0518.
`AGTGGAAG` has an E-score of -0.0125.
`AAAACCGT` has an E-score of -0.0824.
`AAAAATGT` has an E-score of -0.0527.
For `CCTAATAA`, the E-score was 0.0811.
The E-score of `ATATCGAC` is reported as -0.0821.
With `AAGGTGAA` the E-score was 0.0326.
`CTCGCCTA` gave an E-score of 0.0648.
`AGCAACAC` has an E-score of 0.125.
`CACAATGC` gave an E-score of -0.196.
With `AGGTTGAA` the E-score was 0.0742.
`TGAGGGAA` has an E-score of -0.0289.
The E-score of `AATTCGGG` is reported as 0.029.
The E-score of `CTAACCTA` is reported as -0.149.
The E-score of `ATAACGCC` is reported as 0.0104.
`GAGATGAA` gave an E-score of 0.0074.
The E-score of `AACTGTTA` is reported as -0.0899.
For `CGGGACCA`, the E-score was -0.0169.
For `AATGATAT`, the E-score was 0.134.
The E-score of `ATGCCTGA` is reported as 0.0665.
`CCCCTACG` gave an E-score of -0.21.
`AATAAAAC` gave an E-score of -0.0588.
